Assay results pooled from the literature.
Lines come from different studies, so protocols differ. Numbers after ± are the reported error.
BCHE: Cholinesterase (BCHE, Homo sapiens, UniProt P06276)
UniProt P06276, sequence (whole entry, looked up): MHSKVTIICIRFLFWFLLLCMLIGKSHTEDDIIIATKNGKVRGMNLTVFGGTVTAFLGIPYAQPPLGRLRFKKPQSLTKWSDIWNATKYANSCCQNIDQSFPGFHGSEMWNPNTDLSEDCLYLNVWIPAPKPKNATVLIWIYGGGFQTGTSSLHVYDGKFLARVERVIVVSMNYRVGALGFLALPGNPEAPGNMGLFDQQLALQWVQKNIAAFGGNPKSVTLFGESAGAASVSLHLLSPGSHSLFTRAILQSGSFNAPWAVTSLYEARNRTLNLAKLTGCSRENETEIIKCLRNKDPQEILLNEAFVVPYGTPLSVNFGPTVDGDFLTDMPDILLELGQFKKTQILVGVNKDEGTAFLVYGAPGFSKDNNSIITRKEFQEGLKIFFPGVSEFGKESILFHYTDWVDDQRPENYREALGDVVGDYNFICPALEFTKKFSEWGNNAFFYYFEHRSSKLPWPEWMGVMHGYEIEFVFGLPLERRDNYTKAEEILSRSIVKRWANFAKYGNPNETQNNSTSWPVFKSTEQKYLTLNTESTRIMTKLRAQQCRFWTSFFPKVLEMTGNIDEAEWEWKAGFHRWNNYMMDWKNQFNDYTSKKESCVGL
UniProt P51659, sequence (whole entry, looked up): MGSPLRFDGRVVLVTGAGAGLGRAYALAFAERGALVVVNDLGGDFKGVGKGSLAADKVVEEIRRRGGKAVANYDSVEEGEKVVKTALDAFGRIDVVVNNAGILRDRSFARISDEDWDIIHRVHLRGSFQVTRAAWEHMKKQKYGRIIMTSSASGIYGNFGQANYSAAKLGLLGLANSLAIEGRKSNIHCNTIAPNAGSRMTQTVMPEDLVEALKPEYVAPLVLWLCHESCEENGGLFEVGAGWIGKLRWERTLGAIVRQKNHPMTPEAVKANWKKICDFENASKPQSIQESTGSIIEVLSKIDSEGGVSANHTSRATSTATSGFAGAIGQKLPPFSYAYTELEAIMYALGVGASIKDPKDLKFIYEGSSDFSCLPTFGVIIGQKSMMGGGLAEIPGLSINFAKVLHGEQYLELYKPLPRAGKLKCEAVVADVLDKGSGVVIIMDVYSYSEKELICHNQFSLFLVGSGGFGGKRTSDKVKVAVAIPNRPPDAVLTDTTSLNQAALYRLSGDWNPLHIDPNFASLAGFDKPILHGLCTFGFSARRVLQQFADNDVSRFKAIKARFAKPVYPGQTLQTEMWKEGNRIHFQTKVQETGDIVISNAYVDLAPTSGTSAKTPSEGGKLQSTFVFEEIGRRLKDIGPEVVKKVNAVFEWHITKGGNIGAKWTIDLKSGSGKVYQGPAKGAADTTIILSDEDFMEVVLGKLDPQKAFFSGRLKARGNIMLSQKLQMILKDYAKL

O=C1Nc2cc3[nH]nc(-c4ccncc4)c3cc2CN1Cc1ccccc1  patients with headache (CTCAE v4.03; advanced solid tumour patients; intravenous, 0.45 mg/kg, schedules 1/2): 0%
CCCN(CCC)[C@H]1CCc2c(F)ccc(O)c2C1  IC50 (Plasmodium falciparum; HB3): 1000 nM
CCc1ccc(CC/C=C/c2ccc3c(c2)C(=O)CC3)cc1  Mononuclear percentage (Sprague-Dawley rat, female; oral, 30 mg/kg/day, 14 days): 2.1%
CC[C@H](C)[C@H](NC(=O)[C@H](CO)NC(=O)[C@H](CCCNC(=N)N)NC(C)=O)C(=O)N[C@H]1CSSC[C@@H](C(=O)N[C@H](C(N)=O)[C@@H](C)O)NC(=O)[C@H](CCCNC(=N)N)NC(=O)[C@H](Cc2c[nH]cn2)NC(=O)[C@H](C)NC(=O)CNC(=O)[C@H](Cc2c[nH]c3ccccc23)NC(=O)[C@H](CC(=O)O)NC(=O)[C@H](CCC(N)=O)NC(=O)[C@H](Cc2c[nH]c3ccccc23)NC(=O)[C@H](C(C)C)NC1=O  log retention factor (isocratic RP-HPLC, C18; 32% acetonitrile, phosphate pH 7.4, 1% TFA; 25 °C): -0.306
COc1cc2c(cc1OC)CN(CCc1ccc(NC(=O)c3cccc4c(=O)c5cccc(OC)c5[nH]c34)cc1)CC2  AUC(0-t) (CD-1 mouse, male, plasma; intraperitoneal, 0.3 mg/kg): 448 ng·h/mL
CC(C)[C@H](C(=O)O[C@H](C#N)c1cccc(Oc2ccccc2)c1)c1ccc(Cl)cc1  enzyme contribution to clearance (refers to: CYP2C19; human, age 1 year): 2.62%
COc1cc2c(Oc3ccc4[nH]c(C)cc4c3F)ccnc2cc1OCC1(N)CC1  grade 1 or 2 sinus bradycardia (paediatric recurrent refractory sarcoma; 10 mg): 25%
C=C(C)[C@@H]1CCC(C)=C[C@H]1c1c(O)cc(CCCCC)cc1O  subjects with Diarrhea (human; 750 mg, trial 17074, with: rifampicin 600 mg): 6%
CC(C)C[C@@H]1NC(=O)CNC(=O)[C@H](CC(N)=O)NC(=O)[C@H](CCCNC(=N)N)NC(=O)[C@H]([C@@H](C)O)NC(=O)[C@@H]2CSSC[C@@H]3NC(=O)[C@H]([C@@H](C)O)NC(=O)CNC(=O)CNC(=O)[C@H](C(C)C)NC(=O)[C@@H]4CSSC[C@H](NC(=O)[C@H]([C@@H](C)O)NC(=O)[C@H](CSSC[C@H](NC(=O)[C@H](C(C)C)NC(=O)[C@@H]5CCCN5C1=O)C(=O)NCC(=O)N[C@@H](CCC(=O)O)C(=O)N[C@@H](CCCCN)C(=O)N4)NC(=O)CNC(=O)[C@@H]1CCCN1C(=O)[C@H]([C@@H](C)O)NC(=O)[C@H](CC(N)=O)NC3=O)C(=O)N[C@@H](CO)C(=O)N[C@@H](Cc1c[nH]c3ccccc13)C(=O)N1CCC[C@H]1C(=O)N[C@@H](C(C)C)C(=O)N2  remaining peptide (HPLC; ammonium bicarbonate; 180 µM, 7 days, pH 9.0, 25 °C, deamidation stability): 95.4 ± 0.6%
CCC[C@@](N)(CO)CCc1ccc(OCCCCCC(C)C)cc1  Tmax (dog, male hounds, plasma; oral capsule, 20 mg/kg, median): 6 h
O=C(Nc1ccccc1)C1CCN(C(=O)Oc2cccnc2)CC1  adverse event incidence (refers to: Dizziness; healthy female human; concentration not given, all doses pooled): 8%
O=C(Nc1ccccc1)C1CCN(C(=O)Oc2cccnc2)CC1  change in Meaning score (psychotropic effects VAS; healthy women; 20 mg; reference: pre-dose baseline, direction not given): 0.1
COc1ccc2nc3cc(Cl)ccc3c(Nc3cc(CN4CCCC4)c(O)c(CN4CCCC4)c3)c2n1  lymphocytes (mouse, blood; intraperitoneal, 14 mg/kg): 66.7%
CN1C(=O)[C@@H](NC(=O)c2nnc(Cc3ccccc3)[nH]2)COc2cccnc21  participants with TEAE leading to death (phase I single ascending dose; human, male and female; oral, 10 mg, fasted): 0%
COc1cc2c(Nc3ccc(Cl)c(Cl)c3F)ncnc2cc1OC[C@@H]1C[C@@H]2CN(C)C[C@@H]2C1  MTD (mouse; daily dosing): 60 mg/kg
CC(C)C[C@@H]1NC(=O)CNC(=O)[C@H](CC(N)=O)NC(=O)[C@H](CCCNC(=N)N)NC(=O)[C@H]([C@@H](C)O)NC(=O)[C@@H]2CSSC[C@@H]3NC(=O)[C@H]([C@@H](C)O)NC(=O)CNC(=O)CNC(=O)[C@H](CCCCN)NC(=O)[C@@H]4CSSC[C@H](NC(=O)[C@H]([C@@H](C)O)NC(=O)[C@H](CSSC[C@H](NC(=O)[C@H](C(C)C)NC(=O)[C@@H]5CCCN5C1=O)C(=O)NCC(=O)N[C@@H](CCC(=O)O)C(=O)N[C@@H]([C@@H](C)O)C(=O)N4)NC(=O)CNC(=O)[C@@H]1CCCN1C(=O)[C@H]([C@@H](C)O)NC(=O)[C@H](CC(N)=O)NC3=O)C(=O)N[C@@H](CO)C(=O)N[C@@H](Cc1c[nH]c3ccccc13)C(=O)N1CCC[C@H]1C(=O)N[C@@H](C(C)C)C(=O)N2  remaining peptide (HPLC; water; 180 µM, 14 days, 37 °C, deamidation stability): 99.4 ± 0.6%
CN1CCN(S(=O)(=O)c2cc([N+](=O)[O-])ccc2N(CCOS(C)(=O)=O)CCOS(C)(=O)=O)CC1  AUMC(0-inf) (naive female NSG mice, plasma; intraperitoneal, 25 mg/kg): 1.42 µM·h²
CCN1[C@@H](C(=O)NC23CCC(C(=O)O)(CC2)CC3)[C@H](c2cccc(Cl)c2F)[C@]2(C(=O)Nc3cc(Cl)ccc32)C12CCCCC2  Anemia incidence (patients with advanced solid tumours; oral, 150 mg): 62.5%
CC(C)n1cnc2c(NCCc3ccc(O)cc3)nc(-c3csc4ccccc34)nc21  IC50 (BCHE; inhibitor, fluorometric): 910 ± 210 nM
O=S(=O)(Nc1ccccc1)c1ccc(NC(=S)Nc2ccccc2)cc1  relative organ weight (female mice, spleen; oral, 20 mg/kg daily 14 days; reference: body weight): 0.36%
Clc1cc(Cl)c(-c2cc(Cl)ccc2Cl)c(Cl)c1  log K(PDMS-water) (fresh water; 20 °C, S30-1 sampler, 30 µm): 6.03 ± 0.04
C[C@H]1CN(c2n[nH]c3nc(N[C@H]4CC[C@H](NS(=O)(=O)CCC(F)(F)F)CC4)ncc23)CCO1  relative abundance (HSD17B4 (Homo sapiens, UniProt P51659); inhibitor, Kinobeads competition profiling; 20 µM; reference: vehicle): 1.12
O.O.O.O.O.O.[Cl-].[Cl-].[Co+2]  reticulocytes (Crl:CD(SD) rat male, blood; oral, 7.44 mg Co/kg/day, 90 days; reference: red blood cells): 10.5%
COc1ncccc1-c1cnn2ccc(N3CCN(C(=O)OC(C)C)CC3)nc12  drug concentration (rat, CCI mechanical allodynia model, plasma; oral, 10 mg/kg, 240 min): 2100 nM
COc1ncnn2ccc(-c3cnc4nc(C)n(Cc5nnc([C@@H](C)F)o5)c4c3)c12  incidence of Hyponatremia (human patients; oral, dose not given, all-grade adverse drug reaction): 21.4%
CO[C@H]1C[C@@H]2CC[C@@H](C)[C@@](O)(O2)C(=O)C(=O)N2CCCC[C@H]2C(=O)O[C@H]([C@H](C)C[C@@H]2CC[C@@H](OC(=O)NCCOCCOCCOCCOCCOCCOCCOCCOCCC(=O)N3CCc4cc(Cn5nc(-c6ccc7oc(N)nc7c6)c6c(N)ncnc65)ccc4C3)[C@H](OC)C2)C[C@@H](O)[C@H](C)/C=C(\C)[C@@H](O)[C@@H](OC)C(=O)[C@H](C)C[C@H](C)/C=C/C=C/C=C/1C  TRAE incidence (phase 1 dose escalation, refers to: headache; advanced solid tumour patients; intravenous, 16 mg weekly, grade ≥3): 0%
CN1CC[C@@H](c2c(O)cc(O)c3c(=O)cc(-c4ccc(C(F)(F)F)cc4Cl)oc23)[C@@H]1CO  patients with adverse event (refers to: febrile neutropenia; B-cell malignancies or AML; oral, 100 mg, grade 3 to 4, continuous dosing): 12.5%
COc1ccc2c(c1)CN(C(=O)CCN1CCC(Cc3ccccc3)CC1)CCS2  IC50 (BCHE; inhibitor, fluorometric): 6220 ± 790 nM
O=[Se](=O)([O-])[O-].[Na+].[Na+]  apparent clearance (CL/F) (rat; subcutaneous, 0.04 mg/kg): 3.6 mL/day/kg
[O-][S+]1CCc2nc(N3CCC(c4ncc(Cl)cn4)CC3)nc(NC3(CO)CCC3)c21 (centres unmarked)  Headache adverse events (idiopathic pulmonary fibrosis patients; 18 mg twice daily): 10%
C[C@@H]1CC[C@H]2[C@@H](C)C(=O)O[C@@H]3O[C@@]4(C)CC[C@@H]1[C@]32OO4  IC50 (Plasmodium falciparum; cell growth; W2): 11 nM
Clc1cc(-c2cc(Cl)c(Cl)c(Cl)c2Cl)cc(Cl)c1Cl  literature range factor (PDMS-water partitioning; PCB compilation; reference: maximum over minimum K): 1.1
